# Measured values from different studies.
# Compare with care: the assays were run in different laboratories. Several values in a cell are separate wells, animals, samples, runs or records. ± gives the spread as reported. Where no end group is shown, it is not given here. Ends that are not written are not given here. No end group written: not given here. [ ]: non-standard residue; d: D form. The star is where a group is joined. *: point of attachment.
# IKBKG 2-419 C11A/C76A/C95A/C131A/C167A: IKBKG 2-419 C11A/C76A/C95A/C131A/C167A (Homo sapiens, UniProt Q9Y6K9)
# T1: NR1I2/RXRA (Homo sapiens); chain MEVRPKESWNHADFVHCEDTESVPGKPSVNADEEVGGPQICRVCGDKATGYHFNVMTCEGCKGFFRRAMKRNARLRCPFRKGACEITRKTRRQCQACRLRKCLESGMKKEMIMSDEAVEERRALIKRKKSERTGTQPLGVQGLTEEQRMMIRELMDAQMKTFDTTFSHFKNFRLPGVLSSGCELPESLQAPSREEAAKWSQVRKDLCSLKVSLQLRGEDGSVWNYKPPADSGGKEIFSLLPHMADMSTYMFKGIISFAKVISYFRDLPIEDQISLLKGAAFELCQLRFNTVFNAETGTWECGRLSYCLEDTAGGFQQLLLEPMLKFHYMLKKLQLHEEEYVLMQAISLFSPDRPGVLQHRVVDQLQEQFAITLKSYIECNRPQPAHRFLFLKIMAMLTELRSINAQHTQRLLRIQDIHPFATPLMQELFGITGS; chain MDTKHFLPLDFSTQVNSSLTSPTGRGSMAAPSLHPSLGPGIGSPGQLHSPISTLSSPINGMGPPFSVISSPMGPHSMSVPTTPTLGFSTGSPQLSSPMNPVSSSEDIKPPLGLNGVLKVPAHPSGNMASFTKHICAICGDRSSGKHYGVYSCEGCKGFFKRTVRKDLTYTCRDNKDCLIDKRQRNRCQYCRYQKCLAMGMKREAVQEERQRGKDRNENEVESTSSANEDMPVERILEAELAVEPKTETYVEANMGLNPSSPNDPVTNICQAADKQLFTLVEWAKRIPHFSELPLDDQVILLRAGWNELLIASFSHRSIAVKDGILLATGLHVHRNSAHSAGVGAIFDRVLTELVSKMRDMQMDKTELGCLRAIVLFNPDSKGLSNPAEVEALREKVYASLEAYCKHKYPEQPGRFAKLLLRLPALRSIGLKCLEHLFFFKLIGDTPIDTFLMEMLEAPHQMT
# B1: Adgrl3 199-495 (Mus musculus, UniProt Q80TS3); sequence looked up; chain KVFLCPGLLKGVYQSEHLFESDHQSGAWCKDPLQASDKIYYMPWTPYRTDTLTEYSSKDDFIAGRPTTTYKLPHRVDGTGFVVYDGALFFNKERTRNIVKFDLRTRIKSGEAIIANANYHDTSPYRWGGKSDIDLAVDENGLWVIYATEQNNGKIVISQLNPYTLRIEGTWDTAYDKRSASNAFMICGILYVVKSVYEDDDNEATGNKIDYIYNTDQSKDSLVDVPFPNSYQYIAAVDYNPRDNLLYVWNNYHVVKYSLDFGPLDSRSGPVHHGQVSYISPPIHLDSELERPPVRGI
# B2: CABP1 N-terminal lobe (Homo sapiens); chain DRSLRPEEIEELREAFREFDKDKDGYINCRDLGNCMRTMGYMPTEMELIELSQQINMNLGGHVDFDDFVELMGPKLLAET
# B3: FLRT3 LRR domain 29-357 (Homo sapiens, UniProt Q9NZU0); sequence looked up; chain KSCPSVCRCDAGFIYCNDRFLTSIPTGIPEDATTLYLQNNQINNAGIPSDLKNLLKVERIYLYHNSLDEFPTNLPKYVKELHLQENNIRTITYDSLSKIPYLEELHLDDNSVSAVSIEEGAFRDSNYLRLLFLSRNHLSTIPWGLPRTIEELRLDDNRISTISSPSLQGLTSLKRLVLDGNLLNNHGLGDKVFFNLVNLTELSLVRNSLTAAPVNLPGTNLRKLYLQDNHINRVPPNAFSYLRQLYRLDMSNNNLSNLPQGIFDDLDNITQLILRNNPWYCGCKMKWVRDWLQSLPVKVNVRGLMCQAPEKVRGMAIKDLNAELFDCKD
# B4: ASB9 35-252 (Homo sapiens, UniProt Q96DX5); sequence looked up; chain SDWSPMHEAAIHGHQLSLRNLISQGWAVNIITADHVSPLHEACLGGHLSCVKILLKHGAQVNGVTADWHTPLFNACVSGSWDCVNLLLQHGASVQPESDLASPIHEAARRGHVECVNSLIAYGGNIDHKISHLGTPLYLACENQQRACVKKLLESGADVNQGKGQDSPLHAVARTASEELACLLMDFGADTQAKNAEGKRPVELVPPESPLAQLFLER
# B5: CPT1A 381-469 (Rattus norvegicus, UniProt P32198); Cy3 label; sequence looked up; chain AALTAADRVPWAKCRQTYFARGKNKQSLDAVEKAAFFVTLDESEQGYREEDPEASIDSYAKSLLHGRCFDRWFDKSITFVVFKNSKIGI
Substance,target or system,test,test system,setting,how to read,measurement,value
"Biotin-GIINTLQKYYCRVRGGRCAVLSCLPKEEQIGKCSTRGRKCCRRKK (DEFB103A (Homo sapiens, UniProt P81534); ends and bridges not checked; Biotin = O=C1N[C@H]2[C@H](CS[C@H]2CCCCC(=O)*)N1; sequence looked up)","MRGPRX3 (Homo sapiens, UniProt Q96LB0)","PE-anti-biotin intensity, flow cytometry","peptide, MRGPRX3-FLAG cells",,,Kd,11100 nM
B1 (Adgrl3 199-495),"FLRT3 LRR domain 29-386, N-linked glycosylation (Mus musculus, UniProt Q8BGT1)",ITC,,"pH 7.0, 25 °C, NaCl 150 mM",,Kd,16.9 nM and 17 nM
Insulin human,,ELISA,"rat, striatum","intranasal, 20 µg per nostril, 60 min",,concentration,74.8 ± 28.1 pg/mg tissue
ARTK(Me3)QTARKSTGGKAY (histone H3 2-16 (UniProt P68431); not fully specified; K4me3; Me3 = Me3: trimethyl-lysine (trimethylated lysine)),"KMT2A 1564-1628 (Homo sapiens, UniProt Q03164)",ITC,peptide,"pH 7.2, 25 °C, NaCl 50 mM",,Kd,30900 nM
[dI]VIA (D-Ile1),PC-12,"protection from Aβ1–42 toxicity, MTT",,"concentration not given, 6 h, Aβ to peptide ratio 1:5, with: Aβ1–42 2 µM",relative to: untreated cells,cell viability,70%
THBS1 fragment (Homo sapiens),"pad-2 40-424 R298K/R299K (Caenorhabditis elegans, UniProt Q8WR51)",ITC,,25 °C,,Kd,950 nM
"PAKKSEELVAEAHNLSTLLENAIQDTVREQDQSATALDWSWLQTE (IKBKB 701-745 C716S/F734A (Homo sapiens, UniProt O14920); sequence looked up)",IKBKG 2-419 C11A/C76A/C95A/C131A/C167A,"competition with labelled peptide, fluorescence polarisation",,pH 7.4,,Kd,180 nM
B2 (CABP1 N-terminal lobe),CACNA1C IQ domain three CaM anchors to alanine (Homo sapiens),ITC,,"pH 7.4, KCl 5 mM, with: CaCl2 1 mM",,Kd,> 5000 nM
B3 (FLRT3 LRR domain 29-357),"ADGRL3 20-1447 Y249A/D251A/T252A/R308A (Homo sapiens, UniProt Q9HAR2)",flow cytometry,HEK293,"100 nM, tetramerised, avidity, in cells",,Kd,> 10000 nM
V[dI]IA (D-Ile2),PC-12,"protection from Aβ1–42 toxicity, MTT",,"concentration not given, 6 h, Aβ to peptide ratio 1:5, with: Aβ1–42 2 µM",relative to: untreated cells,cell viability,76%
{FITC}-SARWRFPARPGTTGGGGGGGRRGLGGAPRQRVPALLLPPGY (KMT2A 4-43 C-A; N-terminal FITC; FITC = O=C1OC2(c3ccc(O)cc3Oc3cc(O)ccc32)c2ccc(NC(=S)*)cc21),"MEN1 M327I (Homo sapiens, UniProt O00255-1)",fluorescence polarisation,peptide,,,Kd,0.91 nM
tocilizumab IgG1,"FCGRT (Homo sapiens, UniProt P55899)","BLI, SPR",,,,Kd,24.6 nM and 23 nM and 25.3 nM and 26.1 nM
{TAMRA}-NNGQNGYENPTYKFFEQMQN (APP peptide residues 754-770 (Homo sapiens); N-terminal TAMRA),"APBA2 364-570 Y459A/F520A (Homo sapiens, UniProt Q99767)",fluorescence polarisation,peptide,with: TAMRA-labelled APP peptide 50 nM,,Kd,895000 ± 43000 nM
LRPAP1 fragment (Homo sapiens),LDLR LA5 module (Homo sapiens),NMR titration,,"pH 7.45, 33 °C, NaCl 150 mM, with: CaCl2 10 mM",,Kd,670000 ± 26000 nM
"PAKKSEELVAEAHNLSTLLENAIQDTVREQDQSFTALDWAWLQTE (IKBKB 701-745 C716S/S740A (Homo sapiens, UniProt O14920); sequence looked up)",IKBKG 2-419 C11A/C76A/C95A/C131A/C167A,"competition with labelled peptide, fluorescence polarisation",,pH 7.4,,Kd,85 nM
B4 (ASB9 35-252),CKB 1-381 (UniProt P12277),SPR,,"pH 8.0, NaCl 200 mM, Langmuir model",,Kd,2.6 nM
GCTGAATGAACTTGCTGACCCTCTGCT (dsDNA),"T1, NR1I2/RXRA (Homo sapiens)",fluorescence anisotropy competition,"double-stranded DNA, one strand shown",with: DR3 FAM,,Ki,98 ± 4.9 nM
"LDRQEEEEALQDQKRREEELGRIMVNAFDDLLDEENTIDS (asl 21-60 (Drosophila melanogaster, UniProt Q9VNE4); sequence looked up)","zyg-1 cryptic polo box 338-564 (Caenorhabditis elegans, UniProt Q9GT24)",MST,,,,Kd,197000 nM
KGNMMSNFFGKAAMNK (POLD3 residues 231-246 (Homo sapiens); N-terminal cysteine),"REV1 1158-1251 (Homo sapiens, UniProt Q9UBZ9)",SPR,peptide,"pH 7.4, 25 °C, NaCl 150 mM, equilibrium analysis",,Kd,2300 ± 600 nM
"ARTKQTARKSTG (Histone H3.1 2-13 (Homo sapiens, UniProt P68431); sequence looked up)","CHD3 373-427 (Homo sapiens, UniProt Q12873)",fluorescence titration,peptide,"pH 7.5, 25 °C, NaCl 150 mM, apparent",,Kd,75000 nM
"PAKKSEELVAEAHNLSTLLENAIQDTVREQDQAFTALDWSWLQTE (IKBKB 701-745 C716S/S733A (Homo sapiens, UniProt O14920); sequence looked up)",IKBKG 2-419 C11A/C76A/C95A/C131A/C167A,"competition with labelled peptide, fluorescence polarisation",,pH 7.4,,Kd,6.2 nM
B5 (CPT1A 381-469),"Fabp1, Cy5 label (Mus musculus, UniProt P12710)",FRET,,24 °C,,Kd,2.5 nM
cdc12 fragment I1063A (Schizosaccharomyces pombe) (sequence not shown),ACTA1 filaments (UniProt P68135),pyrene-actin assay,,"barbed ends, rate followed not shown, with: Mg-ATP-actin",,Kd,10.6 nM
"PAKKSEELVAEAHNLSTLLENAIQATVREQDQSFTALDWSWLQTE (IKBKB 701-745 C716S/D725A (Homo sapiens, UniProt O14920); sequence looked up)",IKBKG 2-419 C11A/C76A/C95A/C131A/C167A,"competition with labelled peptide, fluorescence polarisation",,pH 7.4,,Kd,5.9 nM
"UGT1A9 (Homo sapiens, UniProt O60656)",O=c1cc(-c2ccc(O)cc2)oc2cc(O)cc(O)c12,steady-state kinetics,,"pH 7.4, 37 °C",,Vmax/Km,1700 µL/min/mg
MGDSILSQAEIDALLN (fliM residues 1-16 (Escherichia coli)),"cheY 2-129 E89R (Escherichia coli, UniProt P0AE67)",fluorescence titration,peptide,"pH 7.0, one-site model",,Kd,180000 nM
vasoactive intestinal peptide,rat pancreatic acini,,,"10 nM, 15 min, with: 20 µM PKCθ pseudosubstrate inhibitor for 2 h",relative to: total,amylase secretion,3.6 ± 0.4%
{FITC}-PAKKSEELVAEAHNLSTLLENAIQDTVREQDQSFTALDWSWLQTE (IKKβ 701-745 C716S (UniProt O14920); FITC label; FITC = O=C1OC2(c3ccc(O)cc3Oc3cc(O)ccc32)c2ccc(NC(=S)*)cc21; sequence looked up),"IKBKG C11A/C54A/C76A/C95A/C131A/C167A/C347A (Homo sapiens, UniProt Q9Y6K9)",fluorescence polarisation,peptide,pre-treatment not stated,,Kd,52 nM

# For quick reference, copied from above:
Substance,target or system,test,test system,setting,how to read,measurement,value
Insulin human,,ELISA,"rat, striatum","intranasal, 20 µg per nostril, 60 min",,concentration,74.8 ± 28.1 pg/mg tissue
{TAMRA}-NNGQNGYENPTYKFFEQMQN (APP peptide residues 754-770 (Homo sapiens); N-terminal TAMRA),"APBA2 364-570 Y459A/F520A (Homo sapiens, UniProt Q99767)",fluorescence polarisation,peptide,with: TAMRA-labelled APP peptide 50 nM,,Kd,895000 ± 43000 nM
